Experimental data pooled from the literature.
± marks the error that the study gave.
Organism: Klebsiella pneumoniae

`CC[C@@H](C)[C@@H](NC(=O)[C@@H](C)NC(=O)[C@H](NC(=O)[C@@H](CC(=O)O)NC(=O)[C@@H](CCCCN)NC(=O)[C@@H](CO)NC(=O)[C@H](NC(=O)[C@@H](CC(N)=O)NC(=O)[C@@H](C)NC(=O)[C@H](NC(=O)[C@@H](CCC(=O)O)NC(=O)[C@@H](CCCCN)NC(=O)[C@H](NC(=O)[C@H](NC(=O)[C@@H](Cc1c[nH]cn1)NC(=O)[C@@H](CCCCN)NC(=O)[C@H](NC(=O)[C@@H](CCCCN)NC(=O)[C@@H](CCCCN)NC(=O)[C@H](NC(=O)[C@@H](CC(C)C)NC(=O)[C@@H](CCCCN)NC(=O)[C@@H](CC(N)=O)NC(=O)[C@@H](Cc1ccccc1)NC(=O)[C@@H](CCCNC(=N)N)NC(=O)[C@@H](CCCCN)NC(=O)[C@@H](CCCNC(=N)N)NC(=O)[C@@H](Cc1ccccc1)NC(=O)CN)C(C)C)C(C)C)[C@H](C)O)[C@H](C)CC)[C@H](C)O)C(C)C)C(C)C)C(=O)N[C@@H](C(=O)N[C@H](C)C(=O)NCC(=O)N[C@H](CO)C(=O)NCC(=O)N[C@@H](C(=O)N[C@H](C)C(=O)N[C@@H](C(=O)NCC(=O)N[C@H](C)C(=O)N[C@H](C)C(=O)N[C@H](CCSC)C(N)=O)C(C)C)C(C)C)C(C)C` has an MIC of 16 µg/mL (broth microdilution; DSM 30104, CAMHB).
The MIC of `COc1ccc2ccc3c(c2c1)C=[N+]1C2CCCCC2[N+]2=Cc4cccc(F)c4[O][Au-]21[O]3.F[P-](F)(F)(F)(F)F` (stereo not shown) is reported as 10 µM (bacterial growth, broth microdilution; carbapenem-resistant clinical isolate; 24 h).
`NCCCC[C@@H]1NC(=O)[C@@H](Cc2c[nH]c3ccccc23)NC(=O)[C@H](Cc2c[nH]c3ccccc23)NC(=O)[C@@H](N)CSCc2ccc(cc2)CSC[C@@H](C(N)=O)NC(=O)[C@@H](Cc2c[nH]c3ccccc23)NC(=O)[C@H](Cc2c[nH]c3ccccc23)NC(=O)[C@@H](Cc2c[nH]c3ccccc23)NC(=O)[C@H](CCCCN)NC(=O)[C@@H](CCCCN)NC(=O)[C@H](CCCCN)NC(=O)[C@@H](CCCCN)NC1=O` has an MIC of greater than 64 µg/mL.
`CCn1c(-c2ccc(OC)cc2)c(-c2ccc(OC)cc2)n(Cc2c(C)cc(C)cc2C)c1=[Se+][Au-][P+](c1ccccc1)(c1ccccc1)c1ccccc1.[Cl-]` gave an MIC of greater than 40 µM (broth microdilution; carbapenem-resistant BAA-1705; 24 h).
For `COc1ccc2ccc3c(c2c1)C=[N+]1C2CCCCC2[N+]2=Cc4cc(C(C)(C)C)ccc4[O][Au-]21[O]3.F[P-](F)(F)(F)(F)F` (stereo not shown), the MIC was 10 µM (bacterial growth, broth microdilution; carbapenem-resistant; 24 h).
For `CC[C@H](C)[C@H](NC(=O)[C@H](CC(=O)O)NC(=O)[C@H](Cc1ccccc1)NC(=O)[C@H](CC(C)C)NC(=O)CN)C(=O)N[C@H](C(=O)N[C@@H](CCCCN)C(=O)N[C@@H](CCCCN)C(=O)N[C@H](C(=O)N[C@@H](CC(C)C)C(=O)N[C@@H](CCCCN)C(=O)N[C@@H](CC(C)C)C(=O)N[C@@H](CC(C)C)C(=O)N[C@@H](CCCCN)C(N)=O)C(C)C)C(C)C`, the MIC was greater than 20 µM (ATCC 700603, CAMHB; 18 h, 37 °C).
The MIC of `COc1ccc2ccc3c(c2c1)C=[N+]1C2CCCCC2[N+]2=Cc4cc(C)ccc4[O][Au-]21[O]3.F[P-](F)(F)(F)(F)F` (stereo not shown) is reported as greater than 20 µM (bacterial growth, broth microdilution; carbapenem-resistant; 24 h).
With `CN1/C(=C/C=C/c2cc(-c3ccccc3)cc(-c3ccccc3)[o+]2)C(C)(C)c2ccccc21` the MIC was 8 µg/mL (broth dilution; NR-15410, KPC).
`CC(C)C[C@@H]1NC(=O)[C@@H](CC(C)C)NC(=O)[C@H](CCN)NC(=O)[C@@H](NC(=O)[C@H](CCN)NC(=O)[C@@H](N)[C@@H](C)O)CCNC(=O)[C@H]([C@@H](C)O)NC(=O)[C@H](CCN)NC(=O)[C@H](CCN)NC1=O` has an MIC of greater than 64 µg/mL (broth microdilution; NDM-1, CAMHB with polysorbate-80; 16 h).
The MIC of `COc1ccc2ccc3c(c2c1)C=[N+]1C2CCCCC2[N+]2=Cc4ccc(OCCN5CCCCC5)cc4[O][Au-]21[O]3.F[P-](F)(F)(F)(F)F` (stereo not shown) is reported as 10 µM (bacterial growth, broth microdilution; carbapenem-resistant clinical isolate; 24 h).
`CC(C)[C@H](NC(=O)[C@H](CCCNC(=N)N)NC(=O)[C@H](CCCNC(=N)N)NC(=O)[C@@H](NC(=O)[C@H](C)NC(=O)[C@H](CC(N)=O)NC(=O)[C@H](CCCNC(=N)N)NC(=O)[C@@H](NC(=O)[C@H](CCCNC(=N)N)NC(=O)[C@H](CCCNC(=N)N)NC(=O)[C@@H](NC(=O)[C@@H](NC(=O)[C@H](CCCNC(=N)N)NC(=O)[C@H](CCCNC(=N)N)NC(=O)[C@H](Cc1c[nH]c2ccccc12)NC(=O)[C@H](Cc1c[nH]c2ccccc12)NC(=O)CN)[C@@H](C)O)C(C)C)C(C)C)C(C)C)C(=O)O` has an MIC of 128 µg/mL (ATCC 10031; 18 h, 37 °C).
`CC[C@H](C)[C@H](NC(=O)[C@@H](CCCNC(=N)N)NC(=O)[C@H](CCCNC(=N)N)NC(=O)[C@@H]1CCCN1C(=O)[C@H](Cc1c[nH]c2ccccc12)NC(=O)[C@H](CCCNC(=N)N)NC(=O)[C@@H]1CCCN1C(=O)[C@H](CCCNC(=N)N)NC(=O)[C@@H]1CCCN1C(=O)[C@H](CC(C)C)NC(=O)[C@H](Cc1ccc(O)cc1)NC(=O)[C@@H]1CCCN1C(=O)[C@@H]1CCCN1C(=O)[C@H](CCCCN)NC(=O)[C@H](CC(=O)O)NC(=O)[C@@H](N)C(C)C)C(=O)N[C@@H](Cc1ccc(O)cc1)C(=O)N[C@@H](CC(N)=O)C(=O)N[C@H](CCCNC(=N)N)C(N)=O` gave an MIC of 4 µg/mL (broth microdilution; DSM 681; 18 h).
The MIC of `COc1ccc2ccc3c(c2c1)C=[N+]1C2CCCCC2[N+]2=Cc4c(C)cccc4[O][Au-]21[O]3.F[P-](F)(F)(F)(F)F` (stereo not shown) is reported as 10 µM (bacterial growth, broth microdilution; carbapenem-resistant; 24 h).
For `CC(C)C[C@H](NC(=O)[C@H](Cc1ccc(O)cc1)NC(=O)[C@@H]1CCCN1C(=O)[C@H](CCCNC(=N)N)NC(=O)[C@@H]1CCCN1C(=O)[C@H](CCCCN)NC(=O)[C@H](CC(=O)O)NC(=O)[C@@H]1CCCN1C(=O)[C@H](CCCNC(=N)N)NC(=O)C1(N)CCCCC1)C(=O)N1CCC[C@H]1C(=O)N[C@@H](CCCNC(=N)N)C(=O)N1CCC[C@H]1C(=O)N[C@@H](CCCNC(=N)N)C(=O)N1CCC[C@H]1C(=O)N1CCC[C@H]1C(=O)N[C@@H](CCCNC(=N)N)C(=O)N1CCC[C@H]1C(=O)N[C@H](C(=O)N[C@@H](CCCNC(=N)N)C(=O)N[C@@H](CSCc1ccccc1CSC[C@H](NC(=O)[C@H](CCCNC(=N)N)NC(=O)[C@@H](NC(=O)[C@@H]1CCCN1C(=O)[C@H](CCCNC(=N)N)NC(=O)[C@@H]1CCCN1C(=O)[C@@H]1CCCN1C(=O)[C@H](CCCNC(=N)N)NC(=O)[C@@H]1CCCN1C(=O)[C@H](CCCNC(=N)N)NC(=O)[C@@H]1CCCN1C(=O)[C@H](CC(C)C)NC(=O)[C@H](Cc1ccc(O)cc1)NC(=O)[C@@H]1CCCN1C(=O)[C@H](CCCNC(=N)N)NC(=O)[C@@H]1CCCN1C(=O)[C@H](CCCCN)NC(=O)[C@H](CC(=O)O)NC(=O)[C@@H]1CCCN1C(=O)[C@H](CCCNC(=N)N)NC(=O)C1(N)CCCCC1)C(C)C)C(=O)NN)C(=O)NN)C(C)C`, the MIC was 3.7 ± 0.6 µg/mL (bacterial growth; ATCC 13883, 100% Mueller-Hinton broth; 90 min, 37 °C, strain ATCC 13883).
With `CCCCCCCCCCCCCC(=O)N[C@H](CCN)C(=O)N[C@@H]1C(=O)N[C@@H](CCN)C(=O)N[C@@H](CC(C)C)C(=O)N[C@@H](CCN)C(=O)N[C@H](Cc2ccccc2)C(=O)N[C@@H](CC(C)C)C(=O)N[C@@H](CCN)C(=O)N[C@H](Cc2ccc(O)cc2)C(=O)N[C@@H](C(C)C)C(=O)N[C@@H](CC(=O)O)C(=O)O[C@@H]1C` the MIC was 4 µg/mL (broth microdilution; BNCC 186113).
With `Cc1cc(N)c2cc(NC(=O)c3ccc4cc(C5CC5)ccc4c3)ccc2n1` the MIC was greater than 100 µM (ATCC 13883).
